Measurements from different studies.
Every numbered part comes from another study and shows a few of its results, in no order. Values joined by “and” are separate records of one study, mostly repeats; a detail may differ.
Chain of UniProt Q96D53 (whole entry, looked up): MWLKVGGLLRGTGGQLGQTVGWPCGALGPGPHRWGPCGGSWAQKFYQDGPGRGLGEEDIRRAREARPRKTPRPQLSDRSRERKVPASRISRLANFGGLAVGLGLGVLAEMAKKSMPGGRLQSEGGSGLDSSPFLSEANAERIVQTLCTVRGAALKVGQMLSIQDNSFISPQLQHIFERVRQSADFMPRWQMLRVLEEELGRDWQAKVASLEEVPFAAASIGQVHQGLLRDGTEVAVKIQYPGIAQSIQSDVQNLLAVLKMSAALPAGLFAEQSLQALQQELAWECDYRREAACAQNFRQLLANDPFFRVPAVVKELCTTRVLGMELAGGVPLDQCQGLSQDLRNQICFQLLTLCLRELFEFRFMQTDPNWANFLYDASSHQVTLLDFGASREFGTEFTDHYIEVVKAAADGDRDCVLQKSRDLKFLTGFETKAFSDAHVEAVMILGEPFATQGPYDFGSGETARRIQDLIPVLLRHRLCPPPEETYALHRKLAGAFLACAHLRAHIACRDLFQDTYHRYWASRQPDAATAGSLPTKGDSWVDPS
Chain of UniProt P27448 (whole entry, looked up): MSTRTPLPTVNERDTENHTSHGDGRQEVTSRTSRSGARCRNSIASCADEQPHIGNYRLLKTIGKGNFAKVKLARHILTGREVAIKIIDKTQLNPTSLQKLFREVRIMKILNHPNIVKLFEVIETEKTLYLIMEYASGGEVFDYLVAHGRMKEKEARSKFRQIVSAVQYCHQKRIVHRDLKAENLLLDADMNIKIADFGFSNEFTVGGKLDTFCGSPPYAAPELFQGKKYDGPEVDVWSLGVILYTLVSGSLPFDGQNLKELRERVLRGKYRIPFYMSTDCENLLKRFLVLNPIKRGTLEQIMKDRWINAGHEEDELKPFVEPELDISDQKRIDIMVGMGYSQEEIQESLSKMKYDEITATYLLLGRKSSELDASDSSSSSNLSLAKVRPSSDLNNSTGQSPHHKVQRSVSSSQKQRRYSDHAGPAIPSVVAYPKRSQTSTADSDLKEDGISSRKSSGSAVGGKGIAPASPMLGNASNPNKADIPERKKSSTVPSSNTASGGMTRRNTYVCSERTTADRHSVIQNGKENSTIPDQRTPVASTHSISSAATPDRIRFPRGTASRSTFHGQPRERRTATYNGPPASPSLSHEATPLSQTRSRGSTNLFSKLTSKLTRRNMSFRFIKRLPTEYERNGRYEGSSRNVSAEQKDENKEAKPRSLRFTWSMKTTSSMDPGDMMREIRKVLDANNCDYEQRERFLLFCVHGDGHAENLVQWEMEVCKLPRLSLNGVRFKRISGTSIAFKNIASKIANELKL
Chain of UniProt P42679 (whole entry, looked up): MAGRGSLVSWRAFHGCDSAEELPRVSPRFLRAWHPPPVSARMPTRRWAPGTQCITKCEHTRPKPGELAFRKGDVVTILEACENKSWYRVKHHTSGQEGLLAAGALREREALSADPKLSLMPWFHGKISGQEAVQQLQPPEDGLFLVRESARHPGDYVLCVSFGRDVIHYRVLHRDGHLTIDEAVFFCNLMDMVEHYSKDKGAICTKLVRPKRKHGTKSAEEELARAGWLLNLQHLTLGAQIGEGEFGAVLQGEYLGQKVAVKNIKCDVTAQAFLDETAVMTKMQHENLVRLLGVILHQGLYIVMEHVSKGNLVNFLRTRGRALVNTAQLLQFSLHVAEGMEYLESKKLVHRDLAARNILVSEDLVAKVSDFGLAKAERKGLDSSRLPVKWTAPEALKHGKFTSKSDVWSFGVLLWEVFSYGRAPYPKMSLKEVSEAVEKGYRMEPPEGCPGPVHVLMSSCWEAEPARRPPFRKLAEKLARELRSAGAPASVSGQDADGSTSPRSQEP

Series 1
Target: DNA polymerase theta, ATPase domain (POLQ, Homo sapiens, UniProt O75417)
Chain of UniProt O75417 (whole entry, unmodified, looked up): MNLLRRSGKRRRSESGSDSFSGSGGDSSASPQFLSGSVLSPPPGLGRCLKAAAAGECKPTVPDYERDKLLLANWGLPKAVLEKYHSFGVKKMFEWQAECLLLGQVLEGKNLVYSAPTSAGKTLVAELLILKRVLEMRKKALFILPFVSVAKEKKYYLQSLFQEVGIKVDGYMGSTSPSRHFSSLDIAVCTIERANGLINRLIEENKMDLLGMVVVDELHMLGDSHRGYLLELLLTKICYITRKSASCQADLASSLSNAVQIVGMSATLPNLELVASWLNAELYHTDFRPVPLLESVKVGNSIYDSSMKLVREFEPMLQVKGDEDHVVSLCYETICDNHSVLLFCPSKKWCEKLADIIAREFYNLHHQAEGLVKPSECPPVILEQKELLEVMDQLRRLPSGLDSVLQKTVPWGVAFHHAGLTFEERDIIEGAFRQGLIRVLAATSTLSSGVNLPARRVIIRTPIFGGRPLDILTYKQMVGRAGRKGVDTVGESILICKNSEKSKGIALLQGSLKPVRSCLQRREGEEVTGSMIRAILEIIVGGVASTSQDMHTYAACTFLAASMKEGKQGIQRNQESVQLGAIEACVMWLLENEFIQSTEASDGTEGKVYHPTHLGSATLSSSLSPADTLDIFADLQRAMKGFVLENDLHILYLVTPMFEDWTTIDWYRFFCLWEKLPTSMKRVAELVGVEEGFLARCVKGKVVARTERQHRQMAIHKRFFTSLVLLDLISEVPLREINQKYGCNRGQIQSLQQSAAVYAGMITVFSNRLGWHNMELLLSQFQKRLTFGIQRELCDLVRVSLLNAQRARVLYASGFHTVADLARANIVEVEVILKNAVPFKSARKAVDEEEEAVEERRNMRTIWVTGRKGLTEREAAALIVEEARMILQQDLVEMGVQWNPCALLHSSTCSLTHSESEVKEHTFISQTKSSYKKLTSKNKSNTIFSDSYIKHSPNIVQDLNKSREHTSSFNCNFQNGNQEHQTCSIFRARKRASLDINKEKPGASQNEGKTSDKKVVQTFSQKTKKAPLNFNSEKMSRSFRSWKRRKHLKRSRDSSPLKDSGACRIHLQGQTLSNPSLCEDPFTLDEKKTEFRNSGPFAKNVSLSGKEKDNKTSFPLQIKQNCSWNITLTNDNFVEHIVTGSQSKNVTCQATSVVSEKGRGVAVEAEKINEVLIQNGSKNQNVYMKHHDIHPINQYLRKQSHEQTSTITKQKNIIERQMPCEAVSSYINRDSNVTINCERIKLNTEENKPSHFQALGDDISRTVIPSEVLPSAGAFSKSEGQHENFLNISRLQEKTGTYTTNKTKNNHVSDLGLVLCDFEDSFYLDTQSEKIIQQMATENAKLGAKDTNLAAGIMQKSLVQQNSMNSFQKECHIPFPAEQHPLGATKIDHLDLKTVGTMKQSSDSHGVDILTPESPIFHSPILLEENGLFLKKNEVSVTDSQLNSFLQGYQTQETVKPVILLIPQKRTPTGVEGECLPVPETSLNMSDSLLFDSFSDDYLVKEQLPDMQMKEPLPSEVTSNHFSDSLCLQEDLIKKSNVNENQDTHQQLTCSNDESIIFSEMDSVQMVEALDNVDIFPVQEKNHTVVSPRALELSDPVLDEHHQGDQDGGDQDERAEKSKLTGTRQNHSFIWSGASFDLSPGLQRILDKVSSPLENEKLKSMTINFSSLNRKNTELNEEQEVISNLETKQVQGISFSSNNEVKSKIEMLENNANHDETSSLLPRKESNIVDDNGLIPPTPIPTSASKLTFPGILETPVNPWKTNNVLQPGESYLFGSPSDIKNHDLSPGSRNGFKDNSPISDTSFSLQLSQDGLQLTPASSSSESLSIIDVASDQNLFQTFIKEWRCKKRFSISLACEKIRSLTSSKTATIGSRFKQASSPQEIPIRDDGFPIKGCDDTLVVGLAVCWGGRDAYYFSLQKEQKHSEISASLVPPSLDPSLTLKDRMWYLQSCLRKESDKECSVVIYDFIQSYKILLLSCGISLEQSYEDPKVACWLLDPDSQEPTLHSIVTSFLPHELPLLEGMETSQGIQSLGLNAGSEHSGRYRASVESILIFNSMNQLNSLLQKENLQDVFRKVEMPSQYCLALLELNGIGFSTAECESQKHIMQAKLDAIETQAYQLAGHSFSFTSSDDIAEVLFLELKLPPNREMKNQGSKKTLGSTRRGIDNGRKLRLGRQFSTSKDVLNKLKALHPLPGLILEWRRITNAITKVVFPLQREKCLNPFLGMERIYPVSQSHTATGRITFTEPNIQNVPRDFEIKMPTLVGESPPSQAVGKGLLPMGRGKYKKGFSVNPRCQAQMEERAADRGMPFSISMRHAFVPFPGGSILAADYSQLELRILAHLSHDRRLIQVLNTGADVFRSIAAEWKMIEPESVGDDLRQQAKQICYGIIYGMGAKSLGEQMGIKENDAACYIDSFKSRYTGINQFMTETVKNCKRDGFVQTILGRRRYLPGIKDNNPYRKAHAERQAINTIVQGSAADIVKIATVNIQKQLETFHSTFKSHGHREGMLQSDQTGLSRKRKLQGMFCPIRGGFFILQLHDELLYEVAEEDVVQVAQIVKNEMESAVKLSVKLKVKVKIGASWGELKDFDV
Read-out: enzyme activity
Action: inhibitor
Tested at: 77 µM
Relative to: untreated
CC(C)c1noc(N2CCC(COc3ccc(-c4ccc(S(C)(=O)=O)cc4)nc3)CC2)n1 gave a remaining activity of 97.9%.
NS(=O)(=O)c1cc2c(cc1Cl)NC(C1CC3C=CC1C3)NS2(=O)=O (stereo not drawn) gave a remaining activity of 101%.
For N#CSc1ccc2oc(C3=NCCN3)cc2c1, the remaining activity was 65.6%.
Cn1c(=O)c2[nH]cnc2n(C)c1=O gave a remaining activity of 99.9% and 108% and 81.5%.
The remaining activity of CN1C(C)(C)CCCC1(C)C is reported as 102%.
For Cc1cc(Nc2cc(CN3CCOCC3)c3nc(C)c(Cc4ccc(Cl)cc4F)n3n2)n[nH]1, the remaining activity was 97.6%.
CC[C@]1(O)C[C@@H]2CN(CCc3c([nH]c4ccccc34)[C@@](C(=O)OC)(c3cc4c(cc3OC)N(C)[C@H]3[C@@](O)(C(=O)OC)[C@H](OC(C)=O)[C@]5(CC)C=CCN6CC[C@]43[C@@H]65)C2)C1 has a remaining activity of 98.6%.
For C=C1C[C@@]2(O)O[C@@]3(C[C@H]2C(C)C)[C@@H](C)CC[C@@H]13, the remaining activity was 101%.
The remaining activity of CNC(=O)c1ccccc1Nc1nc(Nc2ccc(N3CCOCC3)cc2OC)ncc1Cl is reported as 98.3%.
With C=CCNC1=C2C[C@@H](C)C[C@H](OC)[C@H](O)[C@@H](C)/C=C(\C)[C@H](OC(N)=O)[C@@H](OC)/C=C\C=C(/C)C(=O)NC(=CC1=O)C2=O the remaining activity was 89.9%.
CCN(C(=O)c1c(O)c2c(Cl)cccc2n(C)c1=O)c1ccccc1 has a remaining activity of 84%.
For NC[C@H]1O[C@@H](n2cnc3c(N)ncnc32)[C@H](O)[C@@H]1O, the remaining activity was 97.2%.
CC(=O)Nc1ccccc1 has a remaining activity of 99.9%.

Series 2
SMILES: O=C1CCC(N2Cc3cc(C4CCN(Cc5ccccc5)CC4)ccc3C2=O)C(=O)N1 (stereo not drawn)
Target: Protein cereblon (CRBN, Homo sapiens, UniProt Q96SW2)
Chain of UniProt Q96SW2 (whole entry, looked up): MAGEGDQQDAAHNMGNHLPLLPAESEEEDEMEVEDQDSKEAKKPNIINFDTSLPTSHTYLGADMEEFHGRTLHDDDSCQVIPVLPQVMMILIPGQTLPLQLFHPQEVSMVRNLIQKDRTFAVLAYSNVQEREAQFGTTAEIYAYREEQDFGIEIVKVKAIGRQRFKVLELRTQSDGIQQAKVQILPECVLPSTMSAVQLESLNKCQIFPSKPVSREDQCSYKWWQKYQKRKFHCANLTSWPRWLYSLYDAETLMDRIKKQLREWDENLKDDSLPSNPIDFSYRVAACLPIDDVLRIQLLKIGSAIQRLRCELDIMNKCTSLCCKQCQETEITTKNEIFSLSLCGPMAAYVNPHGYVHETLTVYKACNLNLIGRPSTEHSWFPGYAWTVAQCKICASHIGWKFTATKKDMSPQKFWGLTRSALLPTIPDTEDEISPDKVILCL
Read-out: cell-free assay
Technique: TR-FRET
The inhibition was -0.0425% and 4.2% (0.17 µM).
0.51 µM — inhibition: 0.9% and -8.7%.
The inhibition was 5.3% and 13.9% (41.15 µM).
It gave 99.4% for inhibition (10 mM).
It gave 27.1% for inhibition (123.5 µM).
1.52 µM — inhibition: 0.8% and 3%.

Series 3
Structure (SMILES): Nc1nccc(-c2c(-c3ccc(F)cc3)ncn2C2CCNCC2)n1
Read-out: enzyme activity
Action: inhibitor
Tested at: 0.5 µM
Relative to: control
It gave 103% for remaining activity (MARK3 (Homo sapiens, UniProt P27448)).
For ALK (Homo sapiens, UniProt Q9UM73): remaining activity read 102%.
The remaining activity was 12.1% (NLK (Homo sapiens, UniProt Q9UBE8)).
It gave 96.3% for remaining activity (PKN1 (Homo sapiens, UniProt Q16512)).
It gave 99.8% for remaining activity (STK25 (Homo sapiens, UniProt O00506)).
CDC42BPA (Homo sapiens, UniProt Q5VT25) — remaining activity: 101%.
It gave 99.9% for remaining activity (AKT1 (Homo sapiens, UniProt P31749)).
It gave 95.5% for remaining activity (Cyclin-dependent kinase 3, with cyclin E (CDK3, Homo sapiens, UniProt Q00526)).
It gave 116% for remaining activity (FLT4 (Homo sapiens, UniProt P35916)).
The remaining activity was 99.5% (MATK (Homo sapiens, UniProt P42679)).
FER (Homo sapiens, UniProt P16591) — remaining activity: 98.3%.
For SRC (Homo sapiens, UniProt P12931): remaining activity read 94.2%.
It gave 91.1% for remaining activity (FYN (Homo sapiens, UniProt P06241)).
It gave 95.9% for remaining activity (FGR (Homo sapiens, UniProt P09769)).
For ITK (Homo sapiens, UniProt Q08881): remaining activity read 90.5%.
NEK11 (Homo sapiens, UniProt Q8NG66) — remaining activity: 105%.
TAOK3 (Homo sapiens, UniProt Q9H2K8) — remaining activity: 95.3%.
LIM domain kinase 1 (LIMK1, Homo sapiens, UniProt P53667) — remaining activity: 89.6%.
It gave 98.5% for remaining activity (PASK (Homo sapiens, UniProt Q96RG2)).
It gave 96.8% for remaining activity (PRKX (Homo sapiens, UniProt P51817)).

Series 4
Compound: CO[C@@H](C)c1c(Nc2ccc([C@@H](N(C)C(=O)C3CCS(=O)(=O)CC3)C(F)(F)F)cc2)cnc2cc(Cl)nn12
Read-out: cell-free assay
Technique: competition with immobilised ligand
Tested at: 1 µM
The remaining binding was 96% (COQ8B (Homo sapiens, UniProt Q96D53)).
The remaining binding was 77% (ERBB4 (Homo sapiens, UniProt Q15303)).
CSNK1E (Homo sapiens, UniProt P49674) — remaining binding: 59%.
ZAP70 (Homo sapiens, UniProt P43403) — remaining binding: 100%.
HCK (Homo sapiens, UniProt P08631) — remaining binding: 100%.
It gave 99% for remaining binding (WNK4 (Homo sapiens, UniProt Q96J92)).
It gave 100% for remaining binding (Tyrosine-protein kinase ABL1, phosphorylated (ABL1, Homo sapiens, UniProt P00519, Y253F)).
It gave 72% for remaining binding (EGFR (Homo sapiens, UniProt P00533, L858R/T790M)).
It gave 85% for remaining binding (MET (Homo sapiens, UniProt P08581, Y1235D)).
NEK9 (Homo sapiens, UniProt Q8TD19) — remaining binding: 90%.
CASK (Homo sapiens, UniProt O14936) — remaining binding: 100%.
CLK4 (Homo sapiens, UniProt Q9HAZ1) — remaining binding: 92%.
For TEC (Homo sapiens, UniProt P42680): remaining binding read 82%.
For RIOK1 (Homo sapiens, UniProt Q9BRS2): remaining binding read 91%.
It gave 89% for remaining binding (CDKL5 (Homo sapiens, UniProt O76039)).

For quick reference, copied from above (series 3):
For ITK (Homo sapiens, UniProt Q08881): remaining activity read 90.5%.
NEK11 (Homo sapiens, UniProt Q8NG66) — remaining activity: 105%.
TAOK3 (Homo sapiens, UniProt Q9H2K8) — remaining activity: 95.3%.
